# Assay results collected from several papers.
# ± marks the error that the study gave.
SMILES,test,test system,setting,measurement,result
CC[C@H](C)C(=O)N1CCC(NC(=O)Nc2ccc(OC(F)(F)F)c(F)c2)CC1,,"healthy volunteers, both sexes","oral, 8 mg, fed state",subjects with any adverse event,14.3%
C[C@H]1N=C(c2ccccc2F)c2cc(Br)ccc2-n2cnc(C(=O)OC3O[C@H](C(=O)O)[C@@H](O)[C@H](O)[C@H]3O)c21 (stereo partly shown),LC-MS/MS,"Swiss Webster mouse, female, urine","intraperitoneal, 750 µg parent drug, 0 to 24 h",cumulative excretion,2.8 ± 1.2%
CC[C@@H](C)[C@@H](NC(=O)[C@@H](C)NC(=O)[C@@H](CCCCN)NC(=O)[C@@H](CC(C)C)NC(=O)[C@@H](C)NC(=O)[C@H](NC(=O)[C@@H](Cc1c[nH]cn1)NC(=O)[C@@H](CC(C)C)NC(=O)[C@H](NC(=O)[C@H](NC(=O)[C@@H](CCCCN)NC(=O)[C@@H](CCCCN)NC(=O)[C@@H](C)NC(=O)[C@@H](CO)NC(=O)[C@@H](CCCCN)NC(=O)[C@@H](Cc1ccccc1)NC(=O)[C@H](NC(=O)[C@@H](CCCCN)NC(=O)[C@@H](CC(C)C)NC(=O)[C@@H](Cc1ccccc1)NC(=O)[C@@H](CO)NC(=O)[C@@H](CCCCN)NC(=O)[C@@H](Cc1c[nH]c2ccccc12)NC(=O)[C@@H](CCCCN)NC(C)=O)[C@H](C)O)[C@H](C)O)C(C)C)[C@H](C)O)C(=O)N[C@H](CO)C(=O)N[C@H](CO)C(N)=O,circular dichroism at 222 nm,benign buffer 50% TFE,5 °C,mean residue ellipticity,34100 deg cm2/dmol
CC(C)[C@H](NC(=O)CNC(=O)[C@H](CCC(N)=O)NC(=O)[C@H](C)N)C(=O)O,Probably drug-related,human,"10 mg/kg, 3 days, thrice daily dosing",subjects with adverse events,0%
O=C(CN1CCN(c2cc3c(cc2F)c(=O)c(C(=O)O)cn3C2CC2)CC1)Nc1ccc(Cl)cc1,,"BALB/c mice, female, plasma","iv, 1.25 mg/kg",clearance,0.00447 mL/min
[11CH3]n1c(=O)n(CCCO)c(=O)c2c1nc(Oc1cccc(OC(F)(F)F)c1)n2Cc1ccc(Cl)cc1,ex vivo biodistribution,"Sprague Dawley rat, brain",30 min post injection,tracer uptake,0.37 ± 0.01 %ID/g
COC[C@@H](NC(C)=O)C(=O)NCc1ccc(OCc2cccc(Cl)c2)cc1,behavioural toxicity,rat,oral,TD50,> 500 mg/kg
CC(C)C[C@@H](N)C(=O)NCC(=O)N[C@H](C)C(=O)N[C@H](CO)C(=O)N[C@H](Cc1c[nH]c2ccccc12)C(=O)N[C@H](Cc1c[nH]cn1)C(=O)N[C@H](CCCNC(=N)N)C(=O)N1CCC[C@@H]1C(=O)N[C@H](CC(=O)O)C(=O)N[C@H](CCCCN)C(=O)N[C@H](CS)C(=O)N[C@H](CS)C(=O)N[C@H](CC(C)C)C(=O)NCC(=O)N[C@H](Cc1ccc(O)cc1)C(=O)N[C@H](CCC(N)=O)C(=O)N[C@H](CCCCN)C(=O)N[C@H](CCCNC(=N)N)C(=O)N1CCC[C@@H]1C(=O)N[C@H](CC(C)C)C(=O)N1CCC[C@@H]1C(N)=O,LC-MS/MS,rat plasma,"500 ng/mL, 30 days, -80 °C, storage",measured concentration,563 ± 21 ng/mL
CC[C@H](C)[C@H](NC(=O)[C@H](Cc1c[nH]cn1)NC(=O)[C@H](CCCCN)NC(=O)[C@H](C)NC(=O)[C@H](C)NC(=O)[C@H](Cc1c[nH]cn1)NC(=O)[C@H](CCCNC(=N)N)NC(=O)CNC(=O)[C@H](Cc1c[nH]cn1)NC(=O)[C@H](CCCCN)NC(=O)[C@H](Cc1ccccc1)NC(=O)[C@@H](NC(=O)[C@H](CO)NC(=O)CNC(=O)[C@H](Cc1c[nH]c2ccccc12)NC(=O)CN)[C@@H](C)CC)C(=O)NCC(=O)N[C@@H](Cc1c[nH]cn1)C(=O)N[C@@H](C)C(=O)N[C@@H](C)C(=O)N[C@H](C(=O)N[C@@H](CC(N)=O)C(=O)N[C@@H](Cc1c[nH]cn1)C(=O)N[C@@H](Cc1ccc(O)cc1)C(=O)N[C@@H](CC(C)C)C(N)=O)C(C)C,,zebrafish embryos,"1 h, 4, 28, 52 hpf",acute toxic concentration,5 to 25 µg/mL
CC(C)C[C@@H](NC(=O)[C@@H](CCCCN)NC(=O)CNC(=O)CNC(=O)[C@@H]1CSSC[C@H](N)C(=O)NCC(=O)N[C@@H](CCCNC(=N)N)C(=O)N[C@@H](CCCNC(=N)N)C(=O)N[C@@H](C)C(=O)NCC(=O)NCC(=O)N[C@@H](CO)C(=O)N1)C(=O)N[C@H](C)C(=O)N[C@H](CCCCN)C(=O)N[C@H](CC(C)C)C(=O)N[C@H](C)C(=O)N[C@H](CCCCN)C(=O)N[C@H](CCCCN)C(=O)N[C@H](CC(C)C)C(=O)N[C@H](C)C(=O)N[C@H](CCCCN)C(=O)N[C@H](CC(C)C)C(=O)N[C@H](C)C(=O)N[C@H](CCCCN)C(=O)O,,"cynomolgus monkey, plasma","intravenous, 3 mg/kg, infusion",half-life,53.4 min

# Some of these lines once more:
SMILES,test,test system,setting,measurement,result
[11CH3]n1c(=O)n(CCCO)c(=O)c2c1nc(Oc1cccc(OC(F)(F)F)c1)n2Cc1ccc(Cl)cc1,ex vivo biodistribution,"Sprague Dawley rat, brain",30 min post injection,tracer uptake,0.37 ± 0.01 %ID/g
